Assay results collected from several papers.
Parts stem from different laboratories: compare values within a part only.

Block 1 — technique: universal PBM; molecule type: double-stranded DNA, one strand shown; sample: in vitro; tested at: 600 nM; direction: higher = stronger binding
Target: Sal-like protein 4, full length isoform A (SALL4, Homo sapiens, UniProt Q9UJQ4, residues 1-1053)
Chain of UniProt Q9UJQ4 (whole entry, looked up): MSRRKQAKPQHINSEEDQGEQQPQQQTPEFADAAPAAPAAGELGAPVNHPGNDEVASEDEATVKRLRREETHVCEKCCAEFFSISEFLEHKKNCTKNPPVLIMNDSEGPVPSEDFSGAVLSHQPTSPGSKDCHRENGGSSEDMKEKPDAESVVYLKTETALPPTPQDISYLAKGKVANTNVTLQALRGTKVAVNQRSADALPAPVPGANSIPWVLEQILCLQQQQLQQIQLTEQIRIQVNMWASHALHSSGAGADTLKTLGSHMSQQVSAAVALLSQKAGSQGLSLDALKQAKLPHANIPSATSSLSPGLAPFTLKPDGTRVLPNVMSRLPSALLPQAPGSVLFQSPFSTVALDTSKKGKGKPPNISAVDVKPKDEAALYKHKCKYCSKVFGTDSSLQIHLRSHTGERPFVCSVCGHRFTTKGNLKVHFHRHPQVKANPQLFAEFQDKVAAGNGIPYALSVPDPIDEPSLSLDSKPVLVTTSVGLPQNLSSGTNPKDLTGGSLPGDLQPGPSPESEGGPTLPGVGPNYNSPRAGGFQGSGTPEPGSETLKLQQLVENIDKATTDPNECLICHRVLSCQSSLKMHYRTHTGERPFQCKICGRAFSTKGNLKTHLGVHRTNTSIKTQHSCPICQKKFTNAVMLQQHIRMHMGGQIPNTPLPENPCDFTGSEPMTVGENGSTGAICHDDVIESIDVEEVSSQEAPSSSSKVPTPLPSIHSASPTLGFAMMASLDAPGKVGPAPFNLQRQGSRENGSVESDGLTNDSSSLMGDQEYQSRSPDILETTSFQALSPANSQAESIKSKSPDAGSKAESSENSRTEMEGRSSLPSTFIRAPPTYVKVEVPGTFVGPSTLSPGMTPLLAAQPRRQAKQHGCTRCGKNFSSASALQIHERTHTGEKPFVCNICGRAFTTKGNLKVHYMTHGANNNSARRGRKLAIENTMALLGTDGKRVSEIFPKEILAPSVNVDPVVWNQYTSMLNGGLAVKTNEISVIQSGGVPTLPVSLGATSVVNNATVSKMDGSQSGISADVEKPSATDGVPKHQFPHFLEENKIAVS
Setting: 8-mer, flanks averaged, mean of replicates
With `GGCGCGCA` the E-score was -0.0473.
For `CAACAGTC`, the E-score was -0.00283.
For `GGCGAGTA`, the E-score was -0.183.
`AACAGTGC` has an E-score of -0.0308.
`CACTGGGA` has an E-score of -0.2.
For `GTGAAGTA`, the E-score was 0.158.
For `GCCCCGAC`, the E-score was -0.36.
The E-score of `GCTCCTAA` is reported as -0.174.

Block 2 — technique: RNAcompete; molecule type: RNA; sample: in vitro; tested at: 20 nM; setting: 7-mer, probes averaged, single round; baseline: mean of 7-mers; direction: higher = stronger binding
Target: PABPC1L2, full length, GST fusion (mouse, UniProt A0ABA7IW68)
Target sequence (chain): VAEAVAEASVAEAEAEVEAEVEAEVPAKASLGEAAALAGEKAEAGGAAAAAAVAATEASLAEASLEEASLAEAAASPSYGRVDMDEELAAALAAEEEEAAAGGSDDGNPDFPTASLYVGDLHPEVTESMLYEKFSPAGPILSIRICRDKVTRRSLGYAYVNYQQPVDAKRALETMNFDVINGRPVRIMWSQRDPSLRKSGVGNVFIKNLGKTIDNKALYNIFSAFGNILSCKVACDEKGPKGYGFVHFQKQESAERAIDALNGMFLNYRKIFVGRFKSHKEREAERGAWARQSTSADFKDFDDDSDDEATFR
`GUAGCCC` gave a 7-mer Z-score of -0.289.
`GAUGAUG` gave a 7-mer Z-score of -0.2.
With `CAAUGUU` the 7-mer Z-score was -0.249.
For `AACGGAA`, the 7-mer Z-score was 0.53.
With `UACCAAU` the 7-mer Z-score was -0.161.
For `CCGAUAU`, the 7-mer Z-score was -0.177.
The 7-mer Z-score of `CAUGGUG` is reported as -0.079.
`GGACGCC` gave a 7-mer Z-score of 0.017.
For `UGACCCC`, the 7-mer Z-score was -0.269.
`GACAGGU` has a 7-mer Z-score of -0.128.
With `UAGUCUG` the 7-mer Z-score was -0.282.
`GGGGGUC` has a 7-mer Z-score of 0.497.

Block 3 — technique: protein-binding microarray; molecule type: double-stranded DNA, one strand shown; sample: in vitro; tested at: 0.8 µM; setting: whole 60-bp probe, no competitor; direction: higher = stronger binding
Target: Centromere-binding protein 1, full length, N-terminal tag (CBF1, Saccharomyces cerevisiae, UniProt P17106, residues 1-351)
Chain of UniProt P17106 (whole entry, looked up): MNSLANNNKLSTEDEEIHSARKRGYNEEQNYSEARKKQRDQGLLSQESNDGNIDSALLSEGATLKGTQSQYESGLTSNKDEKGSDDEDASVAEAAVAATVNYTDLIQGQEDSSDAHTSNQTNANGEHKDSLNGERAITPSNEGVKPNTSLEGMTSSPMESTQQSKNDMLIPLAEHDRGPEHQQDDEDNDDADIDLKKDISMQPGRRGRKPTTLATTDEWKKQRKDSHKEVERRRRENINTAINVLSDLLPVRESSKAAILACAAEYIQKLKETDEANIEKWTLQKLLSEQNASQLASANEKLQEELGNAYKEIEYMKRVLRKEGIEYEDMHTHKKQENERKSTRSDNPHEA
The fluorescence intensity of `GAATTATTGTGGATGCTGATGGCCGTGTATGGCTAGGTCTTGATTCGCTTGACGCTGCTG` is reported as 522 a.u.
The fluorescence intensity of `GAACTGTGCATCAACAAGGTGACAGAATGTTGATAGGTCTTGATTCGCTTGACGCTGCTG` is reported as 561 a.u.
The fluorescence intensity of `CTATAATCTTTTCATGTGAGTAGTTTAGATAAATTCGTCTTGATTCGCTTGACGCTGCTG` is reported as 723 a.u.
`GAAATTTTTCATTCTGATGTCATACGACTTTTTTAGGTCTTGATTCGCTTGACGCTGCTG` gave a fluorescence intensity of 596 a.u.
With `CTATCAACTAGTAGTCACACTACCAATATATTATTCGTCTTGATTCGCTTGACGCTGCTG` the fluorescence intensity was 900 a.u.
For `CTACTTTTTCCTCGCCACGTTTTCACTCAGATCTTCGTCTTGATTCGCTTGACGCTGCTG`, the fluorescence intensity was 671 a.u.
With `CTAGAGATGGGAGGCAACGTGATGTGGTTCATATTCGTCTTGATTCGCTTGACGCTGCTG` the fluorescence intensity was 1170 a.u.
For `GAACAGATCCAGCGAGGCACGTGCTCTTTCCACTAGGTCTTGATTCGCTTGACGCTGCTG`, the fluorescence intensity was 12300 a.u.
For `CCTAACTACTATAATCACACCTAATAGCTTCGTACAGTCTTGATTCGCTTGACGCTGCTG`, the fluorescence intensity was 563 a.u.

Single results of other studies
`PhoQ, residues 284 288 289 292 302 303 NLALSC` has a fold induction of 0.562 (PhoP, residues 12 14 15 18 19 TPLRH (Escherichia coli, UniProt P23836); Sort-seq, measured: YFP reporter; E. coli; PhoQ-PhoP variant library, with: 10 µM Mg2+; baseline: high Mg2+ state, higher = stronger signaling).

Some of these lines once more (block 1):
`AACAGTGC` has an E-score of -0.0308.
`CACTGGGA` has an E-score of -0.2.
For `GTGAAGTA`, the E-score was 0.158.
For `GCCCCGAC`, the E-score was -0.36.
The E-score of `GCTCCTAA` is reported as -0.174.
